# Published values gathered from unrelated publications.
# Every numbered part comes from another study and shows a few of its results, in no order.
# UniProt Q15208, sequence (whole entry, looked up): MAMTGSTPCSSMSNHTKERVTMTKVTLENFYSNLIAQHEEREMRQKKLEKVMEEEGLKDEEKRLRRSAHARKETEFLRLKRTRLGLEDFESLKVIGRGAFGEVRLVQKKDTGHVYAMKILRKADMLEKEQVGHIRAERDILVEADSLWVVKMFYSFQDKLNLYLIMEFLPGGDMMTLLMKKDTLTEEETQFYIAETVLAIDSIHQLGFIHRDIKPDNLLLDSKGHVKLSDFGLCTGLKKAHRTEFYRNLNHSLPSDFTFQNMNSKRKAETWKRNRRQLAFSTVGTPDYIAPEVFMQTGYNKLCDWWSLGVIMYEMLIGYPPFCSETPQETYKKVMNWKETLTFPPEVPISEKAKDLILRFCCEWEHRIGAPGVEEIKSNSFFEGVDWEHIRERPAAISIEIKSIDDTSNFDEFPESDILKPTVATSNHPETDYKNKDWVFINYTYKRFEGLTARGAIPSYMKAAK
# UniProt Q06187, sequence (whole entry, looked up): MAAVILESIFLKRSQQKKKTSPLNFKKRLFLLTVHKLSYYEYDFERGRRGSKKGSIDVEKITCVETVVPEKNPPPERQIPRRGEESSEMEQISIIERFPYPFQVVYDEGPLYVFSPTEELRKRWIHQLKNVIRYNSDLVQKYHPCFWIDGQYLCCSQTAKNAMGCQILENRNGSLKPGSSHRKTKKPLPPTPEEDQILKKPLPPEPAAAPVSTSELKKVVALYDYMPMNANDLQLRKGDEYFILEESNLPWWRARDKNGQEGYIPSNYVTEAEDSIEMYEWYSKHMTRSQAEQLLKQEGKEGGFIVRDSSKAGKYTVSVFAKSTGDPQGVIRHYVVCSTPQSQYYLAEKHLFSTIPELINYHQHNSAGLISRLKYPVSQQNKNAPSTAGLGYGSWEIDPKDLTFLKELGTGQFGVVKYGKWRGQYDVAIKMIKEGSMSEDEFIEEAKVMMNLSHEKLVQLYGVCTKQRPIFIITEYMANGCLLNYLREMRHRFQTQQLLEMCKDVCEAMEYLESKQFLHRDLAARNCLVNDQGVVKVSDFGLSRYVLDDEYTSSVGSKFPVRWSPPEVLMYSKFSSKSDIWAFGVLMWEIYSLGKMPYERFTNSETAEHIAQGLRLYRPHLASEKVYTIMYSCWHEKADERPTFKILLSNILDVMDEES
# UniProt P25100, sequence (whole entry, looked up): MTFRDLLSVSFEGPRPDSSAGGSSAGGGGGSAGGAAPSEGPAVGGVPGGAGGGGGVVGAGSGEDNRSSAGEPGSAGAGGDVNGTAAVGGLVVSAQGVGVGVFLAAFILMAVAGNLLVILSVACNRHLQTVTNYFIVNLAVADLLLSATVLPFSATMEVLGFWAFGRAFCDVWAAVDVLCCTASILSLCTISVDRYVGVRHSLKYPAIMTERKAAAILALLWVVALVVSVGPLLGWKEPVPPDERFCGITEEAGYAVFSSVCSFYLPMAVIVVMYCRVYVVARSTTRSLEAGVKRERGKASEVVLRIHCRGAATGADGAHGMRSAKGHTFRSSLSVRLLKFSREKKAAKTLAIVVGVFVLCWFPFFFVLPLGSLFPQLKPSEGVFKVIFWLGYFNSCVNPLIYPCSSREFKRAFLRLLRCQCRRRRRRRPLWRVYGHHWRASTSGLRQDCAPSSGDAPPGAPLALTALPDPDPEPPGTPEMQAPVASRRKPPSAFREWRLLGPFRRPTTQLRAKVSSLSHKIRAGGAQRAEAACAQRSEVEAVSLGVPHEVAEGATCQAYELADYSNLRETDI
# UniProt Q13976, sequence (whole entry, looked up): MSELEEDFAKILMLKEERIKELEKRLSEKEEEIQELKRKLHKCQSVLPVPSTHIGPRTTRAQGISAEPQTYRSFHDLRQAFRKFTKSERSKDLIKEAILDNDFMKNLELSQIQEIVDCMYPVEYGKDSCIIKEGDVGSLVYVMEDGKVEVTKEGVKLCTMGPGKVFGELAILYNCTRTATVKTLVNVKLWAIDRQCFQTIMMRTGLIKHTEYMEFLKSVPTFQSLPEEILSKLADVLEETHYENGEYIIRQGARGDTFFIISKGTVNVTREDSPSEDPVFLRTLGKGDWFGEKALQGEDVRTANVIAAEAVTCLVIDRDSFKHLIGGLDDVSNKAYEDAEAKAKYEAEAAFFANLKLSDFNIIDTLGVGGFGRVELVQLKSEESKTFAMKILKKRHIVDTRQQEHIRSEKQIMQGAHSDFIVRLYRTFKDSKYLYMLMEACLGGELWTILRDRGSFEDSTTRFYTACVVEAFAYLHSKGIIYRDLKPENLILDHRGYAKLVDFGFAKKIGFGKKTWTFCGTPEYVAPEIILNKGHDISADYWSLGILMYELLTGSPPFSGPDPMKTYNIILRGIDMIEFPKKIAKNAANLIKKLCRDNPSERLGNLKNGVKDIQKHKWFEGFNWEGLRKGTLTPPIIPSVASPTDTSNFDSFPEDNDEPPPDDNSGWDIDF

# Set 1
# Compound: CCc1[nH]c(-c2ccc(OC)cc2)nc1-c1ccncc1
# Observed: enzyme activity
# Action: inhibitor
# Concentration: 0.5 µM
# Relative to: control
target,remaining activity [%]
"PRKCD (Homo sapiens, UniProt Q05655)",98.5
"NEK4 (Homo sapiens, UniProt P51957)",95.2
"WNK2 (Homo sapiens, UniProt Q9Y3S1)",104
"MAP3K10 (Homo sapiens, UniProt Q02779)",102
"LYN (Homo sapiens, UniProt P07948)",103
"MKNK2 (Homo sapiens, UniProt Q9HBH9)",88.2
"BTK (Homo sapiens, UniProt Q06187)",106
"Cyclin-dependent kinase 9, with cyclin T1 (CDK9, Homo sapiens, UniProt P50750)",88.5
"EPHA5 (Homo sapiens, UniProt P54756)",100
"AKT3 (Homo sapiens, UniProt Q9Y243)",101
"PRKG1 (Homo sapiens, UniProt Q13976)",81
"PLK2 (Homo sapiens, UniProt Q9NYY3)",101
"CSNK1A1 (Homo sapiens, UniProt P48729)",99.4
"IRAK4 (Homo sapiens, UniProt Q9NWZ3)",111
"CHEK1 (Homo sapiens, UniProt O14757)",98.6
"MAP4K2 (Homo sapiens, UniProt Q12851)",106
"STK38 (Homo sapiens, UniProt Q15208)",102
"PRKCI (Homo sapiens, UniProt P41743)",101
"LRRK2 (Homo sapiens, UniProt Q5S007)",96.7
"MAP2K6 (Homo sapiens, UniProt P52564)",110
"KIT (Homo sapiens, UniProt P10721)",92.7
"CSNK2A1 (Homo sapiens, UniProt P68400)",95.3

# Set 2
# SMILES: COc1cc(C(=O)N2CCC(N3CCN(C)CC3)CC2)ccc1Nc1ncc2c(n1)N(C)c1ccccc1C(=O)N2C
tested on,assay,test system,setting,inhibition
MAP2K6 (mouse),"probe labelling, KiNativ ATP probe",mouse brain lysate,"0.1 µM, LYS2 labelled site",-6.7%
mouse PKACα,"probe labelling, KiNativ ADP probe",mouse brain lysate,"1 µM, LYS1 site",5.1%
mouse PFTAIRE1,"probe labelling, KiNativ ADP probe",mouse brain lysate,"1 µM, LYS1 site LVALkVIR",-9.3%
TBK1 mouse,KiNativ profiling,mouse brain lysate,"1 µM, LYS1 site, together with: ATP acyl phosphate probe",-8.8%
human PBMC,"probe labeling, inhibitor, KiNativ profiling",cell lysate,"concentration not given, domain 1, DFG motif site, together with: ADP acyl-phosphate probe 1 µM",-8.7%
PAN3 human,KiNativ profiling,human PBMC lysate,"concentration not given, ADP probe, other site",-7.4%
WNK1/WNK2/WNK4 (mouse),"probe labelling, inhibitor, KiNativ ActivX ATP probe",mouse brain lysate,"0.1 µM, activation loop peptide IGDLGLATLkR",-10.3%
PKCe (mouse),"probe labelling, KiNativ, refers to: LYS1 site peptide",brain tissue lysate (mouse),"1 µM, together with: ADP acyl-phosphate probe",6.5%
TRKB (mouse),"probe labelling, inhibitor, KiNativ ActivX ADP probe",mouse brain lysate,"1 µM, Lys1 site peptide",-9%
CaMKK2 (mouse),"probe labelling, KiNativ, refers to: Lys1 site peptide",brain tissue lysate (mouse),"0.1 µM, together with: ATP acyl-phosphate probe",-0.9%
human PBMC,"probe labeling, inhibitor, KiNativ profiling, refers to: DIkPSNILLDR",cell lysate,"1 µM, LYS2 site, together with: ATP acyl-phosphate probe",-3.7%
MAP2K6 (mouse),"probe labelling, KiNativ ADP probe",mouse brain lysate,"0.1 µM, LYS2 labelled site",-2.1%
ILK (mouse),"probe labelling, KiNativ, refers to: WQGNDIVVkVLK peptide, LYS1 site",brain tissue lysate (mouse),"0.1 µM, together with: ATP acyl-phosphate probe",-6.6%
MAP3K5 and MAP3K6 mouse,KiNativ profiling,mouse brain lysate,"0.1 µM, LYS1 site, together with: ADP acyl phosphate probe",10.4%

# Set 3
# SMILES: COc1ccc2c(c1)O[C@@H](c1ccc(OC)c(OC)c1)C[C@H]2NC(=O)C1(c2ccc3c(c2)OC(F)(F)O3)CC1
# Observed: binding
# Technique: radioligand binding
# Concentration: 10 µM
target,inhibition
"HRH2 (Homo sapiens, UniProt P25021)",-0.89%
"CHRM4 (Homo sapiens, UniProt P08173)",0.59%
"ADRA2C (Homo sapiens, UniProt P18825)",10.1%
"ADRB3 (Homo sapiens, UniProt P13945)",-7.53%
"ADRA2B (Homo sapiens, UniProt P18089)",19.6%
"ADRA1D (Homo sapiens, UniProt P25100)",0.16%
"DRD1 (Homo sapiens, UniProt P21728)",35.1%
"ADRA1B (Homo sapiens, UniProt P35368)",5.97%
"CHRM2 (Homo sapiens, UniProt P08172)",-13.4%
"HRH1 (Homo sapiens, UniProt P35367)",49.9%
"HRH4 (Homo sapiens, UniProt Q9H3N8)",6.21%

# Set 4
# Target: DNA polymerase theta, helicase domain (POLQ, Homo sapiens, UniProt O75417)
# UniProt O75417, sequence (whole entry, looked up): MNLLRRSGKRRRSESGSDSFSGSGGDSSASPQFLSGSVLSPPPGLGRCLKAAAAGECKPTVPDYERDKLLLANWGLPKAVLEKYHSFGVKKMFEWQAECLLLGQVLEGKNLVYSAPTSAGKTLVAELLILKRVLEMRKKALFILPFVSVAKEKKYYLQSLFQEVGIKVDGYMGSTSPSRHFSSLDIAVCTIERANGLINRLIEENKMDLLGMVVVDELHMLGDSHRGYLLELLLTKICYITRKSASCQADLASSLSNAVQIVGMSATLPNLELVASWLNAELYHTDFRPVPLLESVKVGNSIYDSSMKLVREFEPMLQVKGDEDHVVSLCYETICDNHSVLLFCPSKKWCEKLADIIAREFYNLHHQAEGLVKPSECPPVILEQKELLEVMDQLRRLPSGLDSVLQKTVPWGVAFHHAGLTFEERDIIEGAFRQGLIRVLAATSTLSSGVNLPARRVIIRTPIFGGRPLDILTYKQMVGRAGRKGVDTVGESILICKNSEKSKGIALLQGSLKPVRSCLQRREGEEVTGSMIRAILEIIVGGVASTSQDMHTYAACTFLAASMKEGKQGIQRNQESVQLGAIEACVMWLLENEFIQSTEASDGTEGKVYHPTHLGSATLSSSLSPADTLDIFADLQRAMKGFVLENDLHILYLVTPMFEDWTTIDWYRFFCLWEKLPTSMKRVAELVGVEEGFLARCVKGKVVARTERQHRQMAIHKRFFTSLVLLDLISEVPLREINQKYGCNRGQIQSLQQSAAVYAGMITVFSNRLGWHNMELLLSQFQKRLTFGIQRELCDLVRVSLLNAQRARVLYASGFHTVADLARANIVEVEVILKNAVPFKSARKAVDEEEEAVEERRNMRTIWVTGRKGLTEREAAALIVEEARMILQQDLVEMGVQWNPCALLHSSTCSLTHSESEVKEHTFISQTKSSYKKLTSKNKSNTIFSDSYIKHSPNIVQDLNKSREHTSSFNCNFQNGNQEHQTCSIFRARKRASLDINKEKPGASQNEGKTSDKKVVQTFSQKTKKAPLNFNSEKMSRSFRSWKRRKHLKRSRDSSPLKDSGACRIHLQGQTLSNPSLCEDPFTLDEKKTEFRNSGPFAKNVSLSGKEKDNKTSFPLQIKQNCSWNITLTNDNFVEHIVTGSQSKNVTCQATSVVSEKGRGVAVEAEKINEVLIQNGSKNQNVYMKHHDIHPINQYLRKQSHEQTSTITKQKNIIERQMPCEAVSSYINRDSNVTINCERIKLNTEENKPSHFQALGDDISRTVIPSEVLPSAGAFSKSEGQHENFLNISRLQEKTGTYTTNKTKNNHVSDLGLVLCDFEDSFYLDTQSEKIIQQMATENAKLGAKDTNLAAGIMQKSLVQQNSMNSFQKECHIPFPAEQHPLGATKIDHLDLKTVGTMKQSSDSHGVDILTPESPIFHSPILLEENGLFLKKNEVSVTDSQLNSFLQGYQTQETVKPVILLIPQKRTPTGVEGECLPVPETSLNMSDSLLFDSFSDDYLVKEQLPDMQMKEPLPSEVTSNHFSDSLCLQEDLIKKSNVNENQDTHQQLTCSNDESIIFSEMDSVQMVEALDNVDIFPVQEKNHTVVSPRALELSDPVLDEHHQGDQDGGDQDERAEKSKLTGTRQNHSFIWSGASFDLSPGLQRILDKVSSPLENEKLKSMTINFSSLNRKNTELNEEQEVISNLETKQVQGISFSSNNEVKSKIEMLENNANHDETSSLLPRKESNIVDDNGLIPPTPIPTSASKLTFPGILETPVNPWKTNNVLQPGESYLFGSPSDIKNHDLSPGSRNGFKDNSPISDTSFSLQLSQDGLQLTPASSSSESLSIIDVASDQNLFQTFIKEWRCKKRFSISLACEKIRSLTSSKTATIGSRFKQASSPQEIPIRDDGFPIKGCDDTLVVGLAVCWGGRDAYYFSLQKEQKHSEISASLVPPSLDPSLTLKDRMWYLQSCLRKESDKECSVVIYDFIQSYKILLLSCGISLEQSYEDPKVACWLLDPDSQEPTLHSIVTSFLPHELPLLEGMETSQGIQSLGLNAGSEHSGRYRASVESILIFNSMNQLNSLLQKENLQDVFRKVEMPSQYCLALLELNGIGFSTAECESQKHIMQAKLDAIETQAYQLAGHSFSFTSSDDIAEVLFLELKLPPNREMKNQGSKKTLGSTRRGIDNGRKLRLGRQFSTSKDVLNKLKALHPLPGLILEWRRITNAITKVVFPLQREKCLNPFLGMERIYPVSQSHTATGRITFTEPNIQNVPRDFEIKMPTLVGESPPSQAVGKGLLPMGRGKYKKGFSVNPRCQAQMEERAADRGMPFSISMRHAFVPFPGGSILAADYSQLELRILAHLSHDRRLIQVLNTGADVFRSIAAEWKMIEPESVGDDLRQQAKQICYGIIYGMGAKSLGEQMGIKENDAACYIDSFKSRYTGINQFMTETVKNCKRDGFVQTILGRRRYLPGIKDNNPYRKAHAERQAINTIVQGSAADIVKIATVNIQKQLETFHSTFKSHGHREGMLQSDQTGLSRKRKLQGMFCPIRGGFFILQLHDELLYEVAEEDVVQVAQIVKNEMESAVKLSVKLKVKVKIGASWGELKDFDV
# Observed: enzyme activity
# Concentration: concentration not given
# Notes: without ssDNA
Structure (SMILES),remaining activity [%]
O=C(Nc1cc(-c2ccccc2)sc1C(=O)O)c1cccc(F)c1,39.8
COC(=O)c1cc(Cl)ccc1NC(=O)CSc1ncc(S(=O)(=O)c2ccc(Br)cc2)c(=O)[nH]1,90.1
CCCCCCCC/C=C\CCCCCCCC(=O)O,98.6
COC(=O)[C@]12CCC(C)(C)C[C@H]1[C@H]1C(=O)C=C3[C@@]4(C)C=C(C#N)C(=O)C(C)(C)[C@@H]4CC[C@@]3(C)[C@]1(C)CC2,89.2
COc1ccc(C(=O)Nc2noc3ccccc23)cc1,63.8
COc1ccc(S(=O)(=O)c2cnc(SCC(=O)Nc3cc(F)ccc3C)[nH]c2=O)cc1Cl,78.8
CCC(C)(Oc1ccc(C2(c3ccc(OC(C)(CC)C(=O)O)cc3)CCCCC2)cc1)C(=O)O (stereo not shown),128
Cc1ccc(NC(=O)CSc2ncc(S(=O)(=O)c3ccc(C(C)C)cc3)c(=O)[nH]2)cc1C,92.1
CCCCCCCCCCCCc1ccc(S(=O)(=O)Nc2nncs2)cc1,92.4
COc1ccc2c(c1)c(CC(=O)O)c(C)n2Cc1ccc(Cl)cc1,64
C[C@H]1[C@H](C)CC[C@]2(C(=O)O)CC[C@]3(C)C(=CC[C@@H]4[C@@]5(C)C[C@@H](O)[C@H](O)[C@@](C)(CO)[C@@H]5CC[C@]43C)[C@H]12,57.2

# A few entries again (set 1):
target,remaining activity [%]
"CSNK1A1 (Homo sapiens, UniProt P48729)",99.4
"IRAK4 (Homo sapiens, UniProt Q9NWZ3)",111
"CHEK1 (Homo sapiens, UniProt O14757)",98.6
"MAP4K2 (Homo sapiens, UniProt Q12851)",106
